Published values from different studies.
Compare with care: the assays were run in different laboratories. Positions count from the first letter of the parent shown. Numbers after ± are the reported error.
Putative PAS/PAC sensor protein full length assumed: Putative PAS/PAC sensor protein full length assumed (Nakamurella multipartita, UniProt C8XJT7)
P1: JPH2 N-terminal region (Danio rerio); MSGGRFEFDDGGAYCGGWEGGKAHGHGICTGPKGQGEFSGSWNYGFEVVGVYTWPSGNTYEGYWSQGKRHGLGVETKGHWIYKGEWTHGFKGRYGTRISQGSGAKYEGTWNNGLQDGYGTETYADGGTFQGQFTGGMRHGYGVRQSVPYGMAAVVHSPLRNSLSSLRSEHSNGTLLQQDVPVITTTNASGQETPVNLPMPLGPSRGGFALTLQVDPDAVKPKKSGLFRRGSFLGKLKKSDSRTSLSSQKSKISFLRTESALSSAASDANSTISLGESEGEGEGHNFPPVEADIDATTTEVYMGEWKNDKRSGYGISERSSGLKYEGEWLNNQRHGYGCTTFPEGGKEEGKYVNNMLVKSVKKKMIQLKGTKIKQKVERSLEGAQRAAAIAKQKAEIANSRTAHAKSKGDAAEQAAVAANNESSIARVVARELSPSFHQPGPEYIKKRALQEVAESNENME
P2: RPC82 (Saccharomyces cerevisiae); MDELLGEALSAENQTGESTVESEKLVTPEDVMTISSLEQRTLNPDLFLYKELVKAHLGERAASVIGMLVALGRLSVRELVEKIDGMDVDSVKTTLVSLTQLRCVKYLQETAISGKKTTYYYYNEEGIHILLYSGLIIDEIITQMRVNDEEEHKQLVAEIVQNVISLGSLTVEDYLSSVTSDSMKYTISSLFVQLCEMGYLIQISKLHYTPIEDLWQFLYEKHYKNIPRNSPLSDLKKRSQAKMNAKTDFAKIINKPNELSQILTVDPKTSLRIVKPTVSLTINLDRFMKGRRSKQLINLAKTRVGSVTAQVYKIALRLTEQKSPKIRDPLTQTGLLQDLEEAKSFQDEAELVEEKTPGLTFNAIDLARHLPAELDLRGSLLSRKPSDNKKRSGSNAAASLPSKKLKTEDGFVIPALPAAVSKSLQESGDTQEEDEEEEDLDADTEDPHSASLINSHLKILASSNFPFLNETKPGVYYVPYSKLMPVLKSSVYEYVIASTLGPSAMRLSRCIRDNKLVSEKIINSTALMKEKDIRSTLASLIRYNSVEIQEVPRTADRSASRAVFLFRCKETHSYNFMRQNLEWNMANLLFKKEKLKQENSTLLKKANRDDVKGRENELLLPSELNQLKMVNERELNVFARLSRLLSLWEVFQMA
P3: JPH2 N-terminal region (Mus musculus); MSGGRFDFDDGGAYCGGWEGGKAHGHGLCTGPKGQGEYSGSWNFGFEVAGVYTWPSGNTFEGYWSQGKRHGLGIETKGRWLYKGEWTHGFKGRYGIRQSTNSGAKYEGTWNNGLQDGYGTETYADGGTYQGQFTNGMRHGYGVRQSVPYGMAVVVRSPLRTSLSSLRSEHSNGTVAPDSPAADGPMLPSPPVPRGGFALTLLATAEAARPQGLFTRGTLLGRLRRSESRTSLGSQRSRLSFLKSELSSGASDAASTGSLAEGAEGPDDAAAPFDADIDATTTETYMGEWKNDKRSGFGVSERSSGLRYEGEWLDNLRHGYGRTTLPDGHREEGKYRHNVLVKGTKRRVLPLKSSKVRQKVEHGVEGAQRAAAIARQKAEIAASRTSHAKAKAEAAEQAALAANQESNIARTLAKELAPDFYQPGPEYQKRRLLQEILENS
P4: C1ql1 globular C1q domain (Mus musculus); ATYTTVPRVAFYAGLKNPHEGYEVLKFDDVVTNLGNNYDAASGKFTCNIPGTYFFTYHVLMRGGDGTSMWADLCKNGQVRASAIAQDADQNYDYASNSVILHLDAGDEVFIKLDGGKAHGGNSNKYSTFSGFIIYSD
Chain of UniProt O26901 (whole entry, looked up): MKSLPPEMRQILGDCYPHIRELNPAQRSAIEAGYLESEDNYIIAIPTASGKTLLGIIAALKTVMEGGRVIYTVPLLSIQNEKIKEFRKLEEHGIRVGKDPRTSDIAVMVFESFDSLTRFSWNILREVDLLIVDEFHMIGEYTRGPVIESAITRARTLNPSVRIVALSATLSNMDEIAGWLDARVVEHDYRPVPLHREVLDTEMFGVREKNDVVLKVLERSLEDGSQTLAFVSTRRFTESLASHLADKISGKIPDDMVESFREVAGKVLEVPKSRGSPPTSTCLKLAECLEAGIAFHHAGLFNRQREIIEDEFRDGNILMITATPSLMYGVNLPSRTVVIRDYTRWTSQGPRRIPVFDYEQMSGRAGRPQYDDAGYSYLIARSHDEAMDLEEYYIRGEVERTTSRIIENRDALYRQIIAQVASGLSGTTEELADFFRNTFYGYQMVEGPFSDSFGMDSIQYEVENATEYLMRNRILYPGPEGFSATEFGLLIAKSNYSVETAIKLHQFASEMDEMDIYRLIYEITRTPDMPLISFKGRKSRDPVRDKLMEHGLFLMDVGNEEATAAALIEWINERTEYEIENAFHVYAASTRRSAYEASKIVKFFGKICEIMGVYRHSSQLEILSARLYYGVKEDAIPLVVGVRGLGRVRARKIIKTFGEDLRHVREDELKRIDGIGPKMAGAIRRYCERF
Chain of UniProt P21693 (whole entry, looked up): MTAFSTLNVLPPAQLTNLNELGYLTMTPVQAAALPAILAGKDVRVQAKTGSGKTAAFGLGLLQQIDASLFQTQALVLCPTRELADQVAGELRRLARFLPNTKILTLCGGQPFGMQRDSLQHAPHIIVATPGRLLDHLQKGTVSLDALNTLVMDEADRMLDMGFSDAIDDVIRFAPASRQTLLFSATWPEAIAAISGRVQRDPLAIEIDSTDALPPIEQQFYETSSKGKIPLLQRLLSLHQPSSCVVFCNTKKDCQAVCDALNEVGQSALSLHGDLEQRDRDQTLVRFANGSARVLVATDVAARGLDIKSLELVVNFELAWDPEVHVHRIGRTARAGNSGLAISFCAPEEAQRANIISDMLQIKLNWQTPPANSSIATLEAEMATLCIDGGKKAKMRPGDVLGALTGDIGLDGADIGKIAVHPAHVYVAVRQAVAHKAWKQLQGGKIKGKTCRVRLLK
Chain of UniProt P60335 (whole entry, looked up): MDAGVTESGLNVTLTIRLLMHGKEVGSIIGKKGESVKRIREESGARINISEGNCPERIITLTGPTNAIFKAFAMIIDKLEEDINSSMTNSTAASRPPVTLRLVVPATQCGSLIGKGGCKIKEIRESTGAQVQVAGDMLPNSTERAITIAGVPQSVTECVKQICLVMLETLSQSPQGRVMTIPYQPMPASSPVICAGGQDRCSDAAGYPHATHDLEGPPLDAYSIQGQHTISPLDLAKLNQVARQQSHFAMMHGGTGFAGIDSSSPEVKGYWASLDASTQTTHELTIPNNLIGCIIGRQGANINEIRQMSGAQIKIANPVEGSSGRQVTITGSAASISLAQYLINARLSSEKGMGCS
Chain of UniProt P38996 (whole entry, looked up): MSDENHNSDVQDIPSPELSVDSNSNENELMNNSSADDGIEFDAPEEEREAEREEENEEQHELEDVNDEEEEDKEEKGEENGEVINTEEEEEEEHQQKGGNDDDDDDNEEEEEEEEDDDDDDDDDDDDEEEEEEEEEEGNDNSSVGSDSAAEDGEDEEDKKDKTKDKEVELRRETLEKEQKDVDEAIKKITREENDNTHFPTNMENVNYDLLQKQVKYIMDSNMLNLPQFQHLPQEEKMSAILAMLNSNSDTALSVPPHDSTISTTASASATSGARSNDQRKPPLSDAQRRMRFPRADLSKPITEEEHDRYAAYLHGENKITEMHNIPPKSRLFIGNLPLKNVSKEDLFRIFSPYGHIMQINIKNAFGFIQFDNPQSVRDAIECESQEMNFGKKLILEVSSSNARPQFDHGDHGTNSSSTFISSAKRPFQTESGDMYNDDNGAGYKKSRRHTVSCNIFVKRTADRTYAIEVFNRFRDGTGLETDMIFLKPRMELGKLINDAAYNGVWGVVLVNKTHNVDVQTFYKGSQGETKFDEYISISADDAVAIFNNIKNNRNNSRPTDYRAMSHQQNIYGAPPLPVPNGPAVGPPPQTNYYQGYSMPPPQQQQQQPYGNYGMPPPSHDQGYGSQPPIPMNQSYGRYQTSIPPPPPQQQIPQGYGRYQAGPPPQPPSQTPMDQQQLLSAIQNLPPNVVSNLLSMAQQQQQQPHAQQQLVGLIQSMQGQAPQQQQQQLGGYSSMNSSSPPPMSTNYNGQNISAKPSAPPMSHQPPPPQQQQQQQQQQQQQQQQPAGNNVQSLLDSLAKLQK
Chain of UniProt Q9SJQ6 (whole entry, looked up): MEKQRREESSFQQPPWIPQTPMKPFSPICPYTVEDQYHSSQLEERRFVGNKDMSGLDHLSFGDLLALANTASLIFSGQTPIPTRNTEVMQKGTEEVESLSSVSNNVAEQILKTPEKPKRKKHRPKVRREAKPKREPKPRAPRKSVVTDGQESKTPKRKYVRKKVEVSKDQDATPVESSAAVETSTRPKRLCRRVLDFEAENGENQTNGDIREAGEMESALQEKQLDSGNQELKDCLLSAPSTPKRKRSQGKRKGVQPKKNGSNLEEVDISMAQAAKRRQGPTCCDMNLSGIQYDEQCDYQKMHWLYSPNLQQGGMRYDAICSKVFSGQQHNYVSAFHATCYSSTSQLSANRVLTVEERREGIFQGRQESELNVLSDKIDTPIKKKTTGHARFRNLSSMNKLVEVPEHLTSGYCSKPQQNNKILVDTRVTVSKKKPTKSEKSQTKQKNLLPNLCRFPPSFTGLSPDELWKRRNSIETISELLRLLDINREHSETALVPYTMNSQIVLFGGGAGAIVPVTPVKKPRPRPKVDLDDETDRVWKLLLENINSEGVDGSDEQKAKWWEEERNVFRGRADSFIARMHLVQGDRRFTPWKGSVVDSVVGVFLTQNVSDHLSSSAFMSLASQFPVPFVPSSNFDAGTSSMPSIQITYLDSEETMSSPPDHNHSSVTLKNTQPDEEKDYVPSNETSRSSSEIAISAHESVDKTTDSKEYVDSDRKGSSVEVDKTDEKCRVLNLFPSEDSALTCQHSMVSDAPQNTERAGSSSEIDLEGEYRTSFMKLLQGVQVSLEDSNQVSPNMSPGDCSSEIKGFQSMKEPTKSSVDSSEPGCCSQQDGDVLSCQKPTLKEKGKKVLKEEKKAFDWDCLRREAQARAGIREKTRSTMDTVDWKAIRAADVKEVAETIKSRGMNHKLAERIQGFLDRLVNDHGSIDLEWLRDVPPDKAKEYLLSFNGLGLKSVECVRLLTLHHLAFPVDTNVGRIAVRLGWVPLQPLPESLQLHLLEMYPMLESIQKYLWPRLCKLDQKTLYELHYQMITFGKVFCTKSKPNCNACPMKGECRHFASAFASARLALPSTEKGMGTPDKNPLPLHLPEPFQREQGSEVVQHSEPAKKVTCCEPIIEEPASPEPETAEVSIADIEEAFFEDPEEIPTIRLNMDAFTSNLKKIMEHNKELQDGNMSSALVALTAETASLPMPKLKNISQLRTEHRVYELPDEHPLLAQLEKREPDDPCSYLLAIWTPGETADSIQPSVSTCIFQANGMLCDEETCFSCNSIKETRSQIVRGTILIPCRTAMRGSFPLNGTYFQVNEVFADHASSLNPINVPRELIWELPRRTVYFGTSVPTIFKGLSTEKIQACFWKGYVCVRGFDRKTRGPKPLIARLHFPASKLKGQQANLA

`DNA 1 ATCGATAGTCTCTAGACAGCATGTCCTAGCAAGCCAGAATTCGGCAGCGT / DNA 2 ACGCTGCCGAATTCTGGCTTGCTAGG (DNA; 5' ssDNA tail)`: binding “binds” (hel308 1-690 (Methanothermobacter thermautotrophicus, UniProt O26901); EMSA).
Under binding, `DNA 1 TCACGCGGGATCAATGTGTTCTTTCAGCTCCGGTCACGCTGACCAGGAATACCTCACTACC / DNA 2 GGTAGTGAGGTATTCCCCCGTAAGGGTCCGTAAGGATGGTCAGCGTGACCGGAGCTGAAAGAACACCCGTAAGGGTCCGTAAGGACATTGATCCCGCGTGA (structured DNA; four-way junction, 5-methyl-dC)` is recorded as “binds” (ROS1 1-1393 (Arabidopsis thaliana, UniProt Q9SJQ6); EMSA; folded DNA; 130 nM).
For `GGGAGGACGAUGCGGGGGCAGCAUGUGUCGUUCCUUCGCGUCCGGCGGGUUGAAGCAGACGACUCGCUGAGGAUCCGAGA (stem-loop RNA; stem loop)`, binding read “binds” (Putative PAS/PAC sensor protein full length assumed; 32P well-retention assay, RiboGreen; folded RNA; with: blue light).
For `AAUUGCUACCCAAUGCCUGGCCCAAGGGCAUUCCCAAAGCUUA (ssRNA)`, binding read “binds” (Pcbp1 279-343 (Mus musculus, UniProt P60335); EMSA; RNA).
`P1 S165F` has a relative binding of 33% (CACNA1C JBM (Mus musculus); Strep pull-down; read off a plot; relative to: unchanged protein, higher = more binding).
`GGAUUGUUACUGAUAAAGCAGGCAAAACC (ssRNA; hairpin, two internal loops)` has a Kd of 0.05 ± 0.02 µM (licT 1-56 Q32N (Bacillus subtilis, UniProt P39805); SPR; folded RNA).
With `GCCCTGAAAGATTATGGAATGGGATTAGGGTAAAGGAAGAGAGCATAATCTTTCAGGGC (hairpin DNA; hairpin, 16 bp stem, 27 nt loop)` the Kd was 0.00061 ± 9e-05 µM (topA full length assumed R173A (Escherichia coli, UniProt P06612); fluorescence anisotropy; folded DNA; with: EDTA).
`CUCUCUUACACAUUCCA (ssRNA)` has a Kd of 12.2 ± 1.6 µM (nusB full length assumed D118N (Escherichia coli, UniProt P0A780); fluorescence anisotropy; RNA).
For `GGUUUGUUACUGAUAAAGCAGGCAAGACC (ssRNA (Bacillus subtilis); hairpin, two internal loops)`, the Kd was 6.2 ± 2.5 µM (sacY 1-55 (Bacillus subtilis, UniProt P15401); SPR; folded RNA).
`GCCCTGAAAGATTATGGAATGCGATTAGGGTAAAGGAAGAGAGCATAATCTTTCAGGGC (hairpin DNA; hairpin, 16 bp stem, 27 nt loop)` gave a Kd of 0.00048 ± 2e-05 µM (topA full length assumed Y177S (Escherichia coli, UniProt P06612); fluorescence anisotropy; folded DNA; with: EDTA).
The Kd of `UUUUCUUUUUUCUUAUUCUUAUU (ssRNA)` is reported as 48 ± 2 µM (NAB3 321-415 (Saccharomyces cerevisiae, UniProt P38996); fluorescence anisotropy; RNA).
The relative binding of `P2 K403A K404A L405A K406A E408A D409A` is reported as 0.48 (BRF1 (Saccharomyces cerevisiae); co-IP; relative to: unchanged protein, higher = more partner bound).
With `P3 L163E S165F` the Kd was 16.2 µM (CACNA1C JBM (Mus musculus); ITC).
`GGUUGAUGCAGACGACC (structured RNA)` — result for binding: “no binding” (Putative PAS/PAC sensor protein full length assumed; 32P well-retention assay; folded RNA; with: blue light).
For `GCCCTGAAAGATTATGGAATGAGATTAGGGTAAAGGAAGAGAGCATAATCTTTCAGGGC (hairpin DNA; hairpin, 16 bp stem, 27 nt loop)`, the Kd was 0.0004 ± 0.00012 µM (topA full length assumed (Escherichia coli, UniProt P06612); fluorescence anisotropy; folded DNA; with: EDTA).
With `AUUUUUUUUUUUUAGGUCUUAAGGGUAUGGCUGUUCGCCAUUU (structured RNA)` the Kd was 0.0603 ± 0.0004 µM (dbpA full length assumed (Escherichia coli, UniProt P21693); SPR; folded RNA; KCl 50 mM, steady state, no ATP).
`P4 D72N` has a Kd of 6 µM (ADGRB3 CUB domain (Homo sapiens); ITC; with: Ca2+ 2 mM).

A few entries again:
`CUCUCUUACACAUUCCA (ssRNA)` has a Kd of 12.2 ± 1.6 µM (nusB full length assumed D118N (Escherichia coli, UniProt P0A780); fluorescence anisotropy; RNA).
